{"data": "Published values pooled from the literature", "note": "Each line is one published result; not all experiments were run side by side. Numbers after ± are the reported error."}
{"Compound": "CCc1cc(C(=O)NC)c2nccc(N3CCc4c(cc(Cn5ccnc5)cc4-c4cn(C)nc4C(F)(F)F)C3=O)c2c1", "test system": "CD-1 mouse, male, plasma", "conditions": "oral, 50 mg/kg", "measurement": "AUC extrapolated", "value": "0%"}
{"Compound": "O=C(O)CCC(=O)O.[2H]C([2H])([2H])Oc1cc(C)c2[nH]ccc2c1CN1CC[C@@H](C2CC2)C[C@H]1c1ccc(C(=O)O)cc1", "test system": "healthy Chinese subjects", "conditions": "200 mg, single ascending dose", "measurement": "subjects with any TEAE", "value": "58.3%"}
{"Compound": "N#Cc1ccc2c(c1)[C@H]1CCCN(C(=O)c3ccc4[nH]cnc4c3)[C@H]1C2", "test system": "human, plasma", "conditions": "oral, 20 mg once daily, steady state", "measurement": "Vz/F steady state", "value": "434 L"}
{"Compound": "C[C@@H]1CCO[C@H]2Cn3cc(C(=O)NCc4ccc(F)cc4F)c(=O)c(O)c3C(=O)N12", "test system": "human paediatric patients, weight sample C to under sample D kg, plasma", "conditions": "oral, 22.4 mg granules, 24 h, steady state, geometric mean, population PK post-hoc, N 3", "measurement": "trough concentration (C24)", "value": "962 ng/mL"}
{"Compound": "COc1ccnc(C(=O)O)c1O", "assay": "soil adsorption", "test system": "clay soil", "conditions": "pH 7.6, organic carbon 1.7 %", "measurement": "KFoc", "value": "5520 mL/g"}
{"Compound": "Cc1nc2ccc(F)cc2n1-c1nc(N)c(F)c(Nc2ccc(C(F)(F)F)cc2)n1", "test system": "human patients, plasma", "conditions": "oral, 400 mg twice weekly, cycles 1 and 2 pooled", "measurement": "dose-normalized Cmax", "value": "5.51 ng/mL/mg"}
{"Compound": "NC(=O)CCNC(=O)c1ccc(C2CCCCC2)cc1", "assay": "liver microsome stability", "test system": "cynomolgus liver microsomes", "conditions": "1 µM", "measurement": "hepatic clearance", "value": "19 mL/min/kg"}
{"Compound": "CCO[C@H]1CCN(Cc2c(OC)cc(C)c3[nH]ccc23)[C@H](c2ccc(C(=O)O)cc2)C1", "test system": "human severe hepatic impairment, plasma", "conditions": "oral, 200 mg single dose, geometric mean", "measurement": "unbound half-life", "value": "18.4 h"}
{"Compound": "CCOc1c([C@H](C)n2nc(C)c3c(N)ncnc32)cc(Cl)c(F)c1[C@@H]1CNC(=O)C1", "test system": "human B-cell malignancy patients", "conditions": "oral, all doses, baseline below threshold", "measurement": "observations with HR >100 bpm", "value": "0.9%"}
{"Compound": "O=C(COc1ccc(Cl)cc1)NC12CC(c3nnc([C@H]4C[C@@H](OC(F)(F)F)C4)o3)(C1)C2", "assay": "refers to: post lumbar puncture syndrome", "test system": "human", "conditions": "100 mg once daily, 28 (unit not given)", "measurement": "adverse event incidence", "value": "10%"}
{"Compound": "C[C@@H](Nc1cc(F)cc(F)c1)c1cc(C(=O)N(C)C)cc2c(=O)cc(N3CCOCC3)oc12", "test system": "advanced solid tumour patients", "conditions": "oral, 120 mg twice daily, continuous monotherapy", "measurement": "dose interruption due to AE", "value": "40%"}
{"Compound": "CN1CCN(C(=O)c2ccc(C3CCCCC3)cc2)CC1", "assay": "liver microsome stability", "test system": "dog liver microsomes", "conditions": "1 µM", "measurement": "hepatic clearance", "value": "30 mL/min/kg"}
{"Compound": "COc1cccc(OC)c1-c1cc(C(=O)NC2(C(=O)O)C3CC4CC(C3)CC2C4)nn1-c1ccc(C(=O)N(C)CCCN(C)CCCN(C)C(=O)CN2CCN(CC(=O)[O-])CCN(CC(=O)[O-])CCN(CC(=O)[O-])CC2)cc1C(C)C.[177Lu+3] (stereo not drawn)", "test system": "mouse HT-29 xenograft, large intestine", "conditions": "24 h post injection, biodistribution", "measurement": "tissue uptake", "value": "0.23 %ID/g"}
{"Compound": "O=C(Nc1ccc(Cl)cc1)Nc1ccc(Cl)c(Cl)c1", "test system": "whole cow milk", "conditions": "2000 nM nominal", "measurement": "dose fraction in milk fat", "value": "85.8%"}
{"Compound": "CCC(=O)N(CCC(c1ccc2c(c1)OCO2)c1ccccc1OC)Cc1ccccc1 (stereo not drawn)", "test system": "female athymic nude mouse, blood", "conditions": "i.p., 60 mg/kg twice daily, 14 days, group mean", "measurement": "LYMPH", "value": "70%"}
{"Compound": "Cc1ccc([C@@H]2O[C@H](CO)[C@@H](O)[C@H](O)[C@H]2O)cc1Cc1ccc(-c2ccc(F)cc2)s1", "test system": "Japanese type 2 diabetes patients", "conditions": "200 mg, day 15, 24 h urine collection", "how to read": "baseline: baseline", "measurement": "urinary chloride excretion change", "value": "7.19 mEq"}
{"Compound": "N#Cc1ccc2c(c1)[C@H]1CCCN(C(=O)c3ccc4[nH]cnc4c3)[C@H]1C2", "test system": "human", "conditions": "80 mg, end of trial", "how to read": "baseline: baseline", "measurement": "cortisol level change", "value": "-85 nmol/L"}
{"Compound": "C=CC(=O)NC1CCN(c2ncc3ncnc(Nc4ccc(Oc5ccc6c(c5)ncn6C)c(C)c4)c3n2)CC1", "test system": "healthy male humans, plasma", "conditions": "oral, dose not given, together with: carbamazepine", "how to read": "baseline: with over without carbamazepine", "measurement": "AUC(0-tz) ratio", "value": "37.8%"}
{"Compound": "CSCC[C@H](NC(=O)[C@H](CCCCN)NC(=O)[C@H](CCCNC(=N)N)NC(=O)[C@H](CO)NC(=O)[C@H](Cc1c[nH]c2ccccc12)NC(=O)[C@H](CCCNC(=N)N)NC(=O)[C@@H](CC(C)C)NC(=O)[C@@H](N)CCSC)C(=O)N1CCC[C@H]1C(=O)N[C@@H](CS)C(=O)N[C@H](C(=O)N[C@@H](CO)C(N)=O)C(C)C", "assay": "12G5 competition, SUP-T1 cells", "test system": "human plasma", "conditions": "20 µM, 2 h, 37 °C", "measurement": "remaining activity", "value": "92 ± 21%"}
{"Compound": "COc1ncc(-c2nc3c(n2C(C)C)[C@H](c2ccc(Cl)cc2)N(c2cc(Cl)cn(C)c2=O)C3=O)c(OC)n1", "assay": "LC-MS/MS", "test system": "human, plasma", "conditions": "oral, 4 mg, cycle 1 day 1, low-dose arm", "measurement": "AUC(0-last)", "value": "215 ng·h/mL"}
{"Compound": "CCn1ncc2c1-c1cnc(N)c(c1)O[C@H](C)c1cc(F)ccc1-c1nn(C)nc1C2", "test system": "female Balb/c nude mouse", "conditions": "3 mg/kg twice daily, 6 h (tau/2), steady state", "measurement": "unbound plasma concentration", "value": "67 ± 8 nM"}
{"Compound": "CC(C)(C(=O)N1CCOc2c(C#N)cncc2C1)C(F)F", "assay": "refers to: tandem gait test abnormal", "test system": "human, both sexes", "conditions": "oral, 20 mg once daily, 14 days, multiple ascending dose", "measurement": "subjects with TEAE", "value": "0%"}
{"Compound": "Cl.[2H]C([2H])([2H])CC(=O)c1cnc(NC(=O)C2CC2)cc1Nc1cccc(-c2ncn(C([2H])([2H])[2H])n2)c1OC", "assay": "geometric mean", "test system": "human", "conditions": "oral, 20 mg once daily, day 7, fasted, liquid, multiple dose", "measurement": "elimination rate constant", "value": "2.75e-05 s⁻¹"}
{"Compound": "CCN1/C(=C/C(C)=O)Sc2ccc(F)cc21", "test system": "cynomolgus monkey", "conditions": "oral, 100 mg/kg, 24 h post-dose", "how to read": "baseline: pre-dose", "measurement": "diastolic blood pressure change", "value": "98.2 ± 8.8%"}
{"Compound": "COCCN(C)C(=O)c1ccc([C@H]2[C@@H](F)[C@@H](F)C[C@@H](F)[C@H]2F)cc1", "assay": "liver microsome stability", "test system": "human liver microsomes", "conditions": "1 µM, without NADPH", "measurement": "hepatic clearance", "value": "3.9 mL/min/kg"}
{"Compound": "CNC(=O)c1ccc(-c2cnc3ncc(Cc4ccc5ncccc5c4)n3n2)cc1F", "test system": "human moderate hepatic impairment", "conditions": "oral, 200 mg single dose, adjusted geometric mean", "measurement": "unbound AUC(0-t)", "value": "180 ng·h/mL"}
{"Compound": "CC(C)C[C@H](N)C(=O)N[C@@H](Cc1c[nH]c2ccccc12)C(=O)N[C@@H](Cc1c[nH]c2ccccc12)C(=O)N[C@@H](CCCNC(=N)N)C(=O)N[C@@H](Cc1c[nH]c2ccccc12)C(=O)N[C@@H](Cc1c[nH]c2ccccc12)C(=O)N[C@@H](CCCNC(=N)N)C(=O)N[C@@H](Cc1c[nH]c2ccccc12)C(=O)N[C@@H](CCCNC(=N)N)C(=O)O", "assay": "circular dichroism", "test system": "10 mM PBS", "measurement": "beta-sheet content", "value": "18.9%"}
{"Compound": "CNCc1ccc(-c2[nH]c3cc(F)cc4c3c2CCNC4=O)cc1", "test system": "patients", "conditions": "oral, 480 mg twice daily, all grades", "measurement": "abdominal pain incidence", "value": "33.3%"}
{"Compound": "C=CC(=O)Nc1cc(Nc2nccc(-c3cn(C)c4ccccc34)n2)c(OC)cc1N(C)CCN(C)C", "assay": "storage stability", "test system": "human plasma", "conditions": "30 d, on ice, LLOQ level", "measurement": "recovery", "value": "42.3%"}
{"Compound": "CC(C)C[C@@H]1NC(=O)CN(C)C(=O)[C@H](Cc2ccccc2)NCc2cc(c[nH]2)CNC1=O", "assay": "PAMPA", "test system": "2% lecithin in dodecane", "conditions": "100 µM, 17 h, pH 6.4, 37 °C", "measurement": "-log Pe", "value": "6.76 + 0.17"}
{"Compound": "CC(C)NCCCC[C@@H]1NC(=O)[C@H](Cc2ccc(O)cc2)NC(=O)[C@H](Cc2ccccc2)NC(=O)CC[C@H](C(=O)N[C@@H](CCCCNC(C)C)C(=O)N[C@@H](CCCCNC(=O)[C@H](CCC(=O)O)NC(=O)[C@H](CCC(=O)O)NC(=O)[C@H](CCC(=O)O)NC(=O)CN2CCN(CC(=O)O)CCN(CC(=O)O)CCN(CC(=O)O)CC2)C(N)=O)NC(=O)CNC(=O)[C@H](Cc2ccc3ccccc3c2)NC(=O)[C@@H](CCCNC(=N)N)NC1=O [gallium-68 labelled]", "test system": "mouse with Daudi xenograft, testes", "conditions": "intravenous, 1 h", "measurement": "tissue uptake", "value": "0.12 %ID/g"}
{"Compound": "O=C(Nc1nc2cccc(-c3ccc(CN4CCS(=O)(=O)CC4)cc3)n2n1)C1CC1", "assay": "refers to: arthralgia", "test system": "human rheumatoid arthritis patients", "conditions": "oral, 300 mg once daily, 4 weeks, regardless of relatedness", "measurement": "treatment-emergent adverse events", "value": "0%"}
{"Compound": "Cc1ccc(Sc2ccccc2N2CCNCC2)c(C)c1", "assay": "refers to: feeling abnormal", "test system": "healthy adult women", "conditions": "oral, 5 mg daily, 12 days", "measurement": "participants with TEAE", "value": "0%"}
{"Compound": "CN1C(=O)[C@@H](NC(=O)c2nnc(Cc3ccccc3)[nH]2)COc2cccnc21", "assay": "phase I single ascending dose", "test system": "human, male and female", "conditions": "oral, 200 mg, fasted", "measurement": "participants with any AE of special interest", "value": "0%"}
{"Compound": "CC(=O)N1CC(C(=O)Nc2ccc(C3CCCCC3)cc2)C1", "assay": "liver microsome stability", "test system": "cynomolgus liver microsomes", "conditions": "1 µM", "measurement": "hepatic clearance", "value": "23 mL/min/kg"}
{"Compound": "COc1ccc2[nH]c([S+]([O-])Cc3ncc(C)c(OC)c3C)nc2c1 (stereo not drawn)", "test system": "healthy Chinese volunteers, plasma", "conditions": "oral, 20 mg, fed, CYP2C19 intermediate metabolizers", "measurement": "AUC(0-inf)", "value": "722 ± 488 ng·h/mL"}
{"Compound": "C=CC(=O)Nc1cc(Nc2nccc(-c3cn(C4CC4)c4ccccc34)n2)c(OC)cc1N(C)CCN(C)C", "assay": "bench-top stability", "test system": "rat plasma", "conditions": "1 ng/mL, 3 h, room temperature", "how to read": "baseline: nominal concentration", "measurement": "relative error", "value": "-8.9%"}
{"Compound": "C=CCn1c(=O)c2cnc(Nc3ccc(N4CCN(C)CC4)cc3)nc2n1-c1cccc(C(C)(C)O)n1", "test system": "human patients", "conditions": "oral, 125 mg twice daily, monotherapy, -5 day lead-in", "measurement": "AUC(0-10 h)", "value": "4.28 µM·h"}
{"Compound": "COc1cc(N2CCC(N3CCN(C)CC3)CC2)ccc1Nc1ncnc(Nc2ccccc2S(=O)(=O)C(C)C)n1", "test system": "human, plasma", "conditions": "oral, 325 mg, day 28", "measurement": "Cmax", "value": "1340 ng/mL"}
{"Compound": "C[C@@H](Oc1ccc(S(C)(=O)=O)cc1C(=O)N1C[C@@H]2C[C@]2(c2cc(C(F)(F)F)on2)C1)C(F)(F)F", "test system": "young humans, plasma", "conditions": "oral, 50 mg once daily, single dose, geometric mean", "measurement": "half-life", "value": "48.3 h"}
{"Compound": "O=C(NCCc1cccnc1)c1ccc(C2CCCCC2)cc1", "assay": "liver microsome stability", "test system": "dog liver microsomes", "conditions": "1 µM", "measurement": "hepatic clearance", "value": "29 mL/min/kg"}
{"Compound": "COc1cccc(-c2n[nH]c(SCc3ccccn3)n2)c1OC", "test system": "Sprague-Dawley rats, both sexes", "conditions": "oral dietary, 100 mg/kg/day, day 7, 1 h", "measurement": "plasma concentration", "value": "3060 ng/mL"}
{"Compound": "NC1(C(=O)N[C@@H](CCO)c2ccc(Cl)cc2)CCN(c2nc[nH]c3nccc2-3)CC1", "test system": "metastatic CRPC patients", "conditions": "480 mg b.i.d., any grade, treatment-related, together with: enzalutamide 160 mg daily", "measurement": "incidence of Amnesia", "value": "0%"}
{"Compound": "O=C(NCC1CCOCC1)c1ccc([C@H]2[C@@H](F)[C@@H](F)C[C@@H](F)[C@H]2F)cc1", "assay": "liver microsome stability", "test system": "mouse liver microsomes", "conditions": "1 µM", "measurement": "hepatic clearance", "value": "14 mL/min/kg"}
{"Compound": "CCCOc1ccc(NC(=O)CN2CCN(C)CC2)cc1-c1nc(CC)c(CC)c(=O)[nH]1", "test system": "healthy Chinese men", "conditions": "10 mg, together with: alcohol 0.5 g/kg", "how to read": "baseline: compound with placebo alcohol", "measurement": "maximal diastolic BP decrease difference", "value": "0 mmHg"}
